Published values of several laboratories.
Numbered parts are unrelated; each lists some results of a single study. Changes are numbered by the printed parent chain.

Set 1
Target: ABI1, truncated, D143A, DHFR fusion (Arabidopsis thaliana)
Method: DHFR PCA, deep sequencing
Sample: yeast
Notes: methotrexate growth selection, single substitutions
Together with: (+)-ABA 58 µM
Relative to: wild-type fitted maximum
Direction: higher = stronger binding
Starting sequence: PYL1, truncated, DHFR fusion (Arabidopsis thaliana); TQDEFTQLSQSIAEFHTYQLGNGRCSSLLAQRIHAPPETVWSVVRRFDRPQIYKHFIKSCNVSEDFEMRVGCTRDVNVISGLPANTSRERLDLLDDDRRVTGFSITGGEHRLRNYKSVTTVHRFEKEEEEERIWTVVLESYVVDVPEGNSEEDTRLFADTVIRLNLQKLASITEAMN
Change | relative binding score [%]
W134K | 69.8
C25Y | -12.5
L8T | 54.6
I133D | 98.3
H122R | 11.5
S150D | 76.9
R99G | 65.2
N177P | 77.2
N165R | 0.282
S11A | 91.8
F47I | -6.27

Set 2
Target: Histone acetyltransferase KAT6A, both winged helices, GST fusion (KAT6A, Homo sapiens, UniProt Q92794, residues 1-181)
Method: protein binding microarray
Form: double-stranded DNA, one strand shown
Sample: in vitro
Concentration: not given
Notes: 8-mer, flanks averaged, mean of 2 arrays, mostly near background
Relative to: not given
Direction: higher = stronger binding
Construct (chain): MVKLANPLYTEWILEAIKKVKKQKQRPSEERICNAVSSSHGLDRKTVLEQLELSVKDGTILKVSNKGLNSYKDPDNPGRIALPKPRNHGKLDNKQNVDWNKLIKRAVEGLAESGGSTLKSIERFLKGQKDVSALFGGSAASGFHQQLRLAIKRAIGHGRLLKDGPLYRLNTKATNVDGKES
Sequence | E-score
GTGAGGCA | -0.0972
CTCGCAAG | 0.039
ACTAGTAT | -0.155
ACACGTCC | 0.0521
CCGTCAGA | 0.149
TGTCCTAA | -0.133
AGATGGGC | -0.062
AATAGCCG | 0.168

Set 3
Target: CCNB3, cyclin fold, Cln2 fusion (human)
Method: yeast growth competition, sequencing
Sample: yeast
Notes: strong parent motif
Relative to: not given
Direction: higher = stronger binding
Starting sequence: TICRR docking peptide (human); TKVRRNLFNQELL; partner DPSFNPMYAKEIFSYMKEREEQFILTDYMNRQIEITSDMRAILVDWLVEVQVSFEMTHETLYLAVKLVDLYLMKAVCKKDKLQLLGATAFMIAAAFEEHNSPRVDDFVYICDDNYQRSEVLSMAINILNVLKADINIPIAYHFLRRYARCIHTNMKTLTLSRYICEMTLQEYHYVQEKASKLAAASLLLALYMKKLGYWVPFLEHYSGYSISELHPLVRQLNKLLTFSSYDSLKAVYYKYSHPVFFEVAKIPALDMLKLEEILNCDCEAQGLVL
Change | normalised enrichment score
K2A | 2.29
F8L | 0.325
E11A | 0.898
F8A | -0.096
Q10A | 0.26
N6A | 0.611
L12A | 0.86

Further values, each from its own experiment
Molecule | target | test | test system | setting | how to read | endpoint | result
PhoQ, residues 284 288 289 292 302 303 AAQSYM | PhoP, residues 12 14 15 18 19 LWHVM (Escherichia coli, UniProt P23836) | Sort-seq, measured: YFP reporter | E. coli | PhoQ-PhoP variant library, together with: 10 µM Mg2+ | relative to: high Mg2+ state, higher = stronger signaling | fold induction | 16.2

Some of these lines once more (set 3):
Change | normalised enrichment score
E11A | 0.898
L12A | 0.86
Q10A | 0.26
